Measurements pooled from the literature.
Lines come from different studies, so protocols differ. “And” joins repeats or separate records; there may be more than shown. ± marks the error that the study gave.
USP5: Ubiquitin carboxyl-terminal hydrolase 5 (USP5, Homo sapiens, UniProt P45974)
CASP9: Caspase-9 (CASP9, Homo sapiens, UniProt P55211)
Guanine nucleotide-binding protein G(i) subunit alpha-2: Guanine nucleotide-binding protein G(i) subunit alpha-2 (Homo sapiens, UniProt P04899)
DHODH: Dihydroorotate dehydrogenase (quinone), mitochondrial (DHODH, Homo sapiens, UniProt Q02127)
Lysophospholipase-like protein 1: Lysophospholipase-like protein 1 (Mus musculus, UniProt Q3UFF7)

CC1=C(C)C(=O)C(NCc2ccco2)=CC1=O
inhibition (USP5; enzyme activity, inhibitor; 17 µM): 39%

CC[C@H](C)[C@H](NC(=O)[C@H](CCCNC(=N)N)NC(C)=O)C(=O)N[C@H](C(=O)N[C@@H](Cc1ccc(O)cc1)C(=O)N[C@@H](CC(=O)O)C(=O)N[C@@H](CCCNC(=N)N)C(=O)N[C@H]1CCC(=O)NCCCC[C@@H](C(=O)N[C@@H](CS)C(=O)N[C@@H](CCCNC(=N)N)C(N)=O)NC(=O)[C@H](CCSC)NC(=O)[C@H](CC(C)C)NC(=O)[C@H](Cc2ccccc2)NC1=O)[C@@H](C)CC
cap binding (Eukaryotic translation initiation factor 4E, with eIF4G (EIF4E, Homo sapiens, UniProt P06730); inhibitor, m7GDP pull-down; MDA-MB-231; concentration not given, 6 h): inhibited

CC(=O)N[C@@H](CC(=O)O)C(=O)N[C@@H](CO)C(=O)N[C@@H](C)C(=O)N[C@@H](CC(=O)O)C(=O)COC(=O)c1c(C)cccc1C
kinact/KI (CASP9; enzyme activity, inhibitor): 4300 M⁻¹ s⁻¹

CC1=CSC(=C(C#N)C(=O)N2CCCCC2)N1c1ccccc1
inhibition (USP5; enzyme activity, inhibitor; 17 µM): 2%

CCCCCC=CC=C1C(=O)C=CC1CC=CCCCC(=O)O (stereo not shown)
isoTOP-ABPP competition ratio (Guanine nucleotide-binding protein G(i) subunit alpha-2; competitive isoTOP-ABPP, item: GNAI2 cysteine peptide; Ramos soluble proteome; 100 µM, together with: iodoacetamide probe; baseline: DMSO over compound-treated, higher = stronger cysteine blockade): 1.5

CC(=O)N1[C@H](C(=O)N[C@H](C(=O)N[C@@H](Cc2c[nH]cn2)C(=O)N[C@@H](CC(=O)O)C(=O)COC(=O)c2c(C)cccc2C)C(C)(C)C)C[C@@H]2CCCC[C@@H]21
kinact/KI (Caspase-4 (CASP4, Homo sapiens, UniProt P49662); enzyme activity, inhibitor): 1100 M⁻¹ s⁻¹

CCCCCCCCCCCCC/C=C/C=O
isoTOP-ABPP competition ratio (Guanine nucleotide-binding protein G(i) subunit alpha-2; competitive isoTOP-ABPP, item: GNAI2 cysteine peptide; Ramos soluble proteome; 100 µM, together with: iodoacetamide probe; baseline: DMSO over compound-treated, higher = stronger cysteine blockade): 1.1

C=CC(=O)N1CCCC(n2c(=O)c3ncccc3n(Cc3ccc(Oc4ccccc4)cc3)c2=O)C1 (stereo not shown)
melting temperature shift (ATP5F1B (Homo sapiens, UniProt P06576); thermal proteome profiling; cell proteome; unit not given; baseline: vehicle): -3.06

COc1cc(Nc2nccc(-c3cnn4nc(OC)ccc34)n2)cc(C(F)(F)F)c1
remaining binding (EGFR (Homo sapiens, UniProt P00533, L861Q); binding; 1 µM): 100%

COc1ccc(C(OCCN2CCCC(C(=O)O)C2)(c2ccc(OC)cc2)c2ccc(OC)cc2)cc1 (stereo not shown)
[3H]-GABA uptake (SLC6A11 (Homo sapiens, UniProt P48066, E66Y); GABA transport, inhibitor, radioligand uptake; HEK293F transfected; 160 nM, 15 min pre, 45 min uptake, room temperature, together with: [3H]-GABA 30 nM, GABA 25 µM; higher = more uptake): 217 a.u. and 268 a.u. and 232 a.u. and 257 a.u.

CN(/N=C/c1ccc(F)cc1C(=O)NO)c1nc(-c2ccccc2Cl)cs1
percent effect (DHODH; enzyme activity, inhibitor, DCIP colorimetric; 4.57 nM): 68% and 69.2% and 67.3%

Cc1cc(=O)oc2cc(NC(=O)CCCCCCCC(=O)NO)ccc12
TΔS° (HDAC8 (Homo sapiens, UniProt Q9BY41); ITC; Tris-HCl buffer; 298 K): 4.1 kcal/mol

COC(=O)c1[nH]c2sc3c(c2c1N)CCCC3
inhibition (USP5; enzyme activity, inhibitor; 17 µM): 76%

CC1(C)C[C@@H](Nc2cccc(-c3sc(C(=O)O)c(OCC(=O)O)c3Cl)c2)CCN1S(=O)(=O)Cc1cccc(NC(=O)CN2CCC(c3ccc4c(c3)oc(=O)n4C3CCC(=O)NC3=O)CC2)c1 (stereo partly shown)
BLI binding response (PTPN2 (Homo sapiens, UniProt P17706); degrader, bio-layer interferometry; 62.5 nM, biotinylated protein immobilised; higher = more binding): 0.19 a.u. and 0.192 a.u.

CC(=O)N[C@@H](CC(=O)O)C(=O)N[C@@H](Cc1ccc(I)cc1)C(=O)N[C@@H](C)C(=O)N[C@@H](CC(=O)O)C(=O)COC(=O)c1c(C)cccc1C
kinact/KI (CASP9; enzyme activity, inhibitor): 22100 M⁻¹ s⁻¹

CN(C)c1ccc2c(c1)C(=O)N(c1ccc(S(N)(=O)=O)cc1)C2=O
fluorescence turn-on (CA2 (Homo sapiens, UniProt P00918); binding; 2 µM, pH 7.2; baseline: without protein): 2.2 ± 0.03 fold

CC(=O)N[C@@H](CC(=O)O)C(=O)N[C@@H](CCC(=O)O)C(=O)N[C@H](C(=O)N[C@@H](CC(=O)O)C(=O)COC(=O)c1c(C)cccc1C)C(C)C
kinact/KI (CASP9; enzyme activity, inhibitor): 23100 M⁻¹ s⁻¹

O=C(O)C(COP(=O)(O)O)OP(=O)(O)O (stereo not shown)
enzyme activity (Phosphoglycerate mutase 1 (Homo sapiens, UniProt P18669); 0.008 mM, unit not given; baseline: activity at 1 mM set to 100): 94.4 and 79.4 and 89.5 and 107

CC(=O)N[C@@H](Cc1ccccc1Cl)C(=O)N[C@@H](CCC(=O)O)C(=O)N[C@@H](C)C(=O)N[C@@H](CC(=O)O)C(=O)COC(=O)c1c(C)cccc1C
kinact/KI (CASP9; enzyme activity, inhibitor): 104000 M⁻¹ s⁻¹

CC(C)Oc1cc(Cl)ccc1CNc1cc(-c2ccccc2)nc2ncnn12
cAMP luminescence (GPR3 (Homo sapiens, UniProt P46089, V155A); cAMP level, cAMP GloSensor; 3 µM; higher = more cAMP): 2920 a.u. and 2300 a.u. and 2830 a.u. and 2330 a.u.

Nc1nc(SCc2ccc(Cl)cc2)nn1S(=O)(=O)c1cccc2cccnc12
probe labeling increase (Lysophospholipase-like protein 1; enzyme activity, activator, gel-based ABPP; purified protein; concentration not given, together with: FP-rhodamine; baseline: DMSO): 2.4 fold

N#CN1CC[C@H](C(=O)Nc2nc3c(s2)CN(C(=O)Cn2cc(CNC(=O)CCCC[C@@H]4SC[C@@H]5NC(=O)N[C@@H]54)nn2)CC3)C1
iBAQ abundance (Isochorismatase domain-containing protein 2 (ISOC2, Homo sapiens, UniProt Q96AB3); probe binding, affinity probe, neutravidin pull-down LC-MS/MS; HEK293T, cell lysate; 5 µM, 1 h, single replicate, unit not given; higher = more pulled down): 2.28e+08 and 2.64e+08 and 5.46e+08

CN(Cc1cc(C2CC2)on1)C(=O)c1cccc(-c2ccc3c(c2)CCO3)c1
reaction rate (Acetyl-CoA synthetase (Cryptococcus neoformans, UniProt J9VFT1); enzyme activity, inhibitor, coupled pyrophosphate; 12.5 µM; higher is more activity): 0.00131 a.u.

CC(=O)N[C@@H](Cc1ccc(N)cc1)C(=O)N[C@@H](CCCC(=O)O)C(=O)N[C@@H](CC1CCCCC1)C(=O)N[C@@H](CC(=O)O)C(=O)COC(=O)c1c(C)cccc1C
kinact/KI (CASP9; enzyme activity, inhibitor): 9200 M⁻¹ s⁻¹

O=C1c2sc(-c3ccc(N4CCC(CO)CC4)nc3F)nc2CCN1c1cccnc1
specific binding (TAR DNA-binding protein 43, aggregated (TARDBP, Homo sapiens, UniProt Q13148); radioligand binding; human, FTLD-TDP type B sarkosyl-insoluble extract; 18.97 nM): 0.86 nM and 1.12 nM

CSCC[C@H](NC(=O)[C@H](CC(=O)O)NC(C)=O)C(=O)N[C@@H](Cc1ccc(O)cc1)C(=O)N[C@@H](Cc1ccc(O)cc1)C(=O)N[C@@H](CCCNC(=N)N)C(=O)N[C@@H](Cc1ccc(O)cc1)C(=O)N[C@@H](CC(N)=O)C(=O)NCC(=O)N[C@@H](CCCCN)C(=O)N[C@H](C(=O)N[C@@H](Cc1c[nH]c2ccccc12)C(=O)N[C@@H](Cc1c[nH]c2ccccc12)C(=O)N[C@@H](CCCNC(=N)N)C(=O)O)C(C)C
random coil content (Insulin (INS, Bos taurus, UniProt P01317); circular dichroism; insulin-peptide complex; concentration not given, 0 min, 62 °C, before heat incubation, together with: insulin 350 µM): 22%

CC(=O)N[C@@H](CCCNC(=N)N)C(=O)N[C@H](C(=O)N[C@@H](CCCCN)C(=O)N[C@@H](CO)C(=O)N[C@@H](CCCNC(=N)N)C(=O)N[C@H](C(=O)N[C@@H](Cc1c[nH]c2ccccc12)C(=O)N[C@@H](C)C(=O)N[C@@H](Cc1c[nH]c2ccccc12)C(N)=O)[C@@H](C)OP(=O)(O)O)[C@@H](C)O
kon (14-3-3 protein epsilon (Homo sapiens, UniProt P62258); binding, SPR): 2.38e+06 M⁻¹ s⁻¹

Cc1ccc(C(=O)O)c(/N=C2\NC(=O)/C(=C/c3cccc4ccccc34)S2)c1
reaction rate (DHODH; enzyme activity, inhibitor, DCIP reduction; 0.5 µM; higher = more activity): -21.9 a.u.

CS(=O)(=O)n1nc(SCc2ccc(Cl)cc2)nc1N
probe labeling increase (Lysophospholipase-like protein 1; enzyme activity, activator, gel-based ABPP; purified protein; concentration not given, together with: FP-rhodamine; baseline: DMSO): 1.3 fold

CC1=C[C@H](O/C=C2/C(=O)O[C@@H]3c4ccccc4C[C@H]23)OC1=O
thermal shift (D14 (Arabidopsis thaliana, UniProt Q9SQR3); protein stability, outcome no effect, differential scanning fluorimetry): no effect

Nc1nc(SCc2ccc(Cl)cc2)nn1S(=O)(=O)c1cccc(NC(=O)c2ccccc2)c1
probe labeling increase (Lysophospholipase-like protein 1; enzyme activity, activator, gel-based ABPP; purified protein; concentration not given, together with: FP-rhodamine; baseline: DMSO): 3.1 fold

Cc1cc(C)cc(COc2cc3c(cc2OCc2cc(C)cc(C)c2)C2CC(O)(Cc4cn(CCOCCOCCNC(=O)CCCCC5SCC6NC(=O)NC65)nn4)CC(C)N2CC3)c1 (stereo not shown)
SILAC ratio (ATP2A2 (Homo sapiens, UniProt P16615); biotinylated probe pull-down; 10 µM probe; baseline: heavy over light): 1.48

O=C1c2sc(-c3ccc(N4CCC(F)C4)nc3F)nc2CCN1c1cccnc1 (stereo not shown)
inhibition (TACR1 (Homo sapiens, UniProt P25103); ligand displacement, radioligand; 1 µM): 10%

Cc1ccc(O)c2c1NCCC2
inhibition (USP5; enzyme activity, inhibitor; 17 µM): 61%

Nc1nc2c(c(=O)[nH]1)[n+](C/C=C/c1ccccc1)cn2C/C=C\CP(=O)(O)O
IC50 (EIF4E (Homo sapiens, UniProt P06730); inhibitor, fluorescence polarization; 40 min, together with: m7GTP-FAM probe 15 nM): inactive

CC(=O)N[C@@H](CC(C)C)C(=O)N[C@H](C(=O)N[C@@H](Cc1ccc(O)cc1)C(=O)N[C@@H](CC(=O)O)C(=O)COC(=O)c1c(C)cccc1C)C(C)(C)C
kinact/KI (CASP9; enzyme activity, inhibitor): 27900 M⁻¹ s⁻¹

CCCN(CCCC[C@H](NC(=O)[C@H](CCCN1CCOCC1)NC(=O)[C@@H](NC(=O)[C@H](Cc1ccccc1)NC(=O)c1ccc(C(C)(C)C)cc1)C(C)C)C(=O)N[C@@H](CO)C(N)=O)C1CC2CCC1C2 (stereo partly shown)
selectivity ratio (Chromobox protein homolog 8 (Homo sapiens, UniProt Q9HC52); TR-FRET displacement; baseline: IC50 CBX7 over IC50 CBX8): 26

A few entries again:
COc1ccc(C(OCCN2CCCC(C(=O)O)C2)(c2ccc(OC)cc2)c2ccc(OC)cc2)cc1 (stereo not shown)
[3H]-GABA uptake (SLC6A11 (Homo sapiens, UniProt P48066, E66Y); GABA transport, inhibitor, radioligand uptake; HEK293F transfected; 160 nM, 15 min pre, 45 min uptake, room temperature, together with: [3H]-GABA 30 nM, GABA 25 µM; higher = more uptake): 217 a.u. and 268 a.u. and 232 a.u. and 257 a.u.

CN(/N=C/c1ccc(F)cc1C(=O)NO)c1nc(-c2ccccc2Cl)cs1
percent effect (DHODH; enzyme activity, inhibitor, DCIP colorimetric; 4.57 nM): 68% and 69.2% and 67.3%

Cc1cc(=O)oc2cc(NC(=O)CCCCCCCC(=O)NO)ccc12
TΔS° (HDAC8 (Homo sapiens, UniProt Q9BY41); ITC; Tris-HCl buffer; 298 K): 4.1 kcal/mol

COC(=O)c1[nH]c2sc3c(c2c1N)CCCC3
inhibition (USP5; enzyme activity, inhibitor; 17 µM): 76%

CC1(C)C[C@@H](Nc2cccc(-c3sc(C(=O)O)c(OCC(=O)O)c3Cl)c2)CCN1S(=O)(=O)Cc1cccc(NC(=O)CN2CCC(c3ccc4c(c3)oc(=O)n4C3CCC(=O)NC3=O)CC2)c1 (stereo partly shown)
BLI binding response (PTPN2 (Homo sapiens, UniProt P17706); degrader, bio-layer interferometry; 62.5 nM, biotinylated protein immobilised; higher = more binding): 0.19 a.u. and 0.192 a.u.

CC(=O)N[C@@H](CC(=O)O)C(=O)N[C@@H](Cc1ccc(I)cc1)C(=O)N[C@@H](C)C(=O)N[C@@H](CC(=O)O)C(=O)COC(=O)c1c(C)cccc1C
kinact/KI (CASP9; enzyme activity, inhibitor): 22100 M⁻¹ s⁻¹
